Measurements collected from several papers.
Lines come from different studies, so protocols differ. Values joined by “and” are separate records of one study, mostly repeats; a detail may differ. ± gives the spread as reported.

Structure (SMILES)	assay	test system	setting	how to read	quantity	value
CN(CCNCc1cc(C(=O)[O-])ccc1[O-])CCNCc1cc(C(=O)[O-])ccc1[O-].[Cl-].[Fe+3].[K+].[K+]	T1-weighted MRI 4.7 T	BALB/c mice	0.10 mmol/kg	–	vena cava signal enhancement	~50%
COC1OC(C)C(OS(=O)(=O)O)C(OC2OC(C)C(OS(=O)(=O)O)C(OC3OC(C)C(OS(=O)(=O)O)C(OC4OC(C)C(OS(=O)(=O)O)C(OC5OC(C)C(OS(=O)(=O)O)C(OS(=O)(=O)O)C5OS(=O)(=O)O)C4OS(=O)(=O)O)C3OS(=O)(=O)O)C2OS(=O)(=O)O)C1OS(=O)(=O)O (stereo not drawn)	–	human plasma	128 µg/mL	relative to: control	thrombin time prolongation	0.9 fold
COC1CN([C@H]2CC[C@H]([C@@]3(C)Oc4c(Cl)cc(C(=O)NCc5c(SC)cc(C)[nH]c5=O)c(C)c4O3)CC2)C1	RNA-seq, item: TRPV4 mouse homolog	mouse, HT-1376 xenograft, whole blood	dose not given	relative to: vehicle	log2 fold change	1.23
CC(=O)[O-].O.O.[O-]c1ccc(Br)cc1C=NCCN1CCOCC1.[Zn+2]	hydroxyl radical scavenging	–	160 µM	–	inhibition	37.5%
COC1OC(C)C(OS(=O)(=O)O)C(OC2OC(C)C(OS(=O)(=O)O)C(OC3OC(C)C(OS(=O)(=O)O)C(OS(=O)(=O)O)C3O)C2O)C1O (stereo not drawn)	–	human plasma	128 µg/mL	–	thrombin time	9.7 ± 0.8 s
COc1cc2c(NC3CCN(C(C)C)CC3)cc(N3CCOCC3)nc2cc1OCCCN1CCCC1	TMT quantitative proteomics, item: MDH1 (cytoplasmic)	5xFAD mice, hippocampus	dose not given	–	normalised protein abundance	-0.0592 and -0.0385 and -0.0102 and -0.0704 and -0.0234 and -0.0479 and -0.0612 and -0.0418
COC1OC(C)C(OS(=O)(=O)O)C(OC2OC(C)C(OS(=O)(=O)O)C(OC3OC(C)C(OS(=O)(=O)O)C(OC4OC(C)C(OS(=O)(=O)O)C(OC5OC(C)C(OS(=O)(=O)O)C(OC6OC(C)C(OS(=O)(=O)O)C(OC7OC(C)C(OS(=O)(=O)O)C(OC8OC(C)C(OS(=O)(=O)O)C(OS(=O)(=O)O)C8O)C7O)C6O)C5O)C4O)C3O)C2O)C1O (stereo not drawn)	–	human plasma	128 µg/mL	relative to: control	thrombin time prolongation	0.9 fold
COc1cc(O)ccc1CCC(c1ccc(O)cc1)c1cc2c(c(C)c1O)OC(c1ccc(O)cc1)CC2 (mixture of isomers)	–	human blood	0.3 µM, together with: A23187	–	PGE2 level	23 ± 4 pg/mL
COC1OC(C)C(OC2OC(C)C(O)C(OC3OC(C)C(OC4OC(C)C(O)C(OC5OC(C)C(O)C(OS(=O)(=O)O)C5OS(=O)(=O)O)C4OS(=O)(=O)O)C(OS(=O)(=O)O)C3OS(=O)(=O)O)C2OS(=O)(=O)O)C(OS(=O)(=O)O)C1OS(=O)(=O)O (stereo not drawn)	–	human plasma	128 µg/mL	–	thrombin time	9.6 ± 0.1 s
COc1ccc(NC(=O)c2ccc3[nH]c(-c4ccc(N(C)C)cc4)nc3c2)cn1	–	Lewis lung carcinoma, mice, syngeneic graft, subcutaneous	intraperitoneal, 50 mg/kg daily, day 0	–	tumour volume	164 mm3 and 141 mm3 and 275 mm3 and 135 mm3 and 182 mm3
CC[C@H](C)[C@H](NC(=O)[C@H](Cc1ccc(O)cc1)NC(=O)[C@H](CCC(=O)O)NC(=O)CNC(=O)[C@H](CCC(=O)O)NC(=O)[C@H](CCCCN)NC(=O)[C@H](CCCCN)NC(=O)[C@H](CC(=O)O)NC(=O)[C@H](Cc1c[nH]cn1)NC(=O)[C@H](Cc1c[nH]cn1)NC(=O)[C@H](Cc1c[nH]cn1)NC(=O)[C@H](Cc1c[nH]cn1)NC(=O)[C@H](Cc1c[nH]cn1)NC(=O)[C@H](Cc1c[nH]cn1)NC(=O)[C@H](Cc1c[nH]cn1)NC(=O)[C@H](Cc1c[nH]cn1)NC(=O)[C@H](Cc1c[nH]cn1)NC(=O)[C@@H](N)Cc1c[nH]cn1)C(=O)N[C@@H](CCCCN)C(=O)N[C@@H](CC(C)C)C(=O)N[C@@H](CCCCN)C(=O)N[C@H](C(=O)N[C@H](C(=O)NCC(=O)N[C@@H](CCC(N)=O)C(=O)N[C@@H](CC(=O)O)C(=O)N[C@@H](CO)C(=O)N[C@@H](CO)C(=O)N[C@@H](CCC(=O)O)C(=O)N[C@H](C(=O)N[C@@H](Cc1c[nH]cn1)C(=O)N[C@@H](Cc1ccccc1)C(=O)N[C@@H](CCCCN)C(=O)N[C@H](C(=O)N[C@@H](CCCCN)C(=O)N[C@@H](CCSC)C(=O)N[C@H](C(=O)N[C@H](C(=O)N[C@@H](Cc1c[nH]cn1)C(=O)N[C@@H](CC(C)C)C(=O)N[C@@H](CCCCN)C(=O)N[C@@H](CCCCN)C(=O)N[C@@H](CC(C)C)C(=O)N[C@@H](CCCCN)C(=O)N[C@@H](CCC(=O)O)C(=O)N[C@@H](CO)C(=O)N[C@@H](Cc1ccc(O)cc1)C(=O)N[C@@H](CS)C(=O)N[C@@H](CCC(N)=O)C(=O)N[C@@H](CCCNC(=N)N)C(=O)N[C@@H](CCC(N)=O)C(=O)O)[C@@H](C)O)[C@@H](C)O)C(C)C)[C@@H](C)CC)[C@@H](C)CC)C(C)C	–	Drosophila α-synuclein A53T transgenic	240 µM, 1 day post eclosion, unit not given	relative to: untreated	climbing mean difference	0
COc1ccccc1-c1ccncc1C(=O)Nc1nnc(OCc2ccc(Cl)cc2)s1	–	Brca1 Δ11/Δ11 MEF sgGFP, Mus musculus	1.25 µM, mean of runs 2, 3	relative to: 0 µM	colony survival	82.2%
COC1OC(C)C(OC2OC(C)C(OS(=O)(=O)O)C(OC3OC(C)C(OC4OC(C)C(OS(=O)(=O)O)C(OC5OC(C)C(OC6OC(C)C(OS(=O)(=O)O)C(OS(=O)(=O)O)C6O)C(OS(=O)(=O)O)C5O)C4O)C(OS(=O)(=O)O)C3O)C2O)C(OS(=O)(=O)O)C1O (stereo not drawn)	–	human plasma	128 µg/mL	relative to: control	thrombin time prolongation	1 fold
COc1ccc(C(=O)CCc2cc(C(CCc3ccc(O)cc3OC)c3ccc(O)cc3)c(O)cc2OC)cc1 (racemic)	–	human blood	0.3 µM, together with: A23187	–	5-HETE level	4180 ± 1880 pg/mL
CN1CCC[C@]1(C)/C=C/S(=O)(=O)NC(=O)Nc1c2c(cc3c1CCC3)CCC2	–	human, whole blood ex vivo	250 mg single dose, 3 h, single ascending dose, together with: LPS and ATP	–	IL-18 inhibition	104%
COC1OC(C)C(OC2OC(C)C(O)C(OC3OC(C)C(OC4OC(C)C(O)C(OC5OC(C)C(OC6OC(C)C(O)C(OC7OC(C)C(OC8OC(C)C(O)C(OC9OC(C)C(OC%10OC(C)C(O)C(OC%11OC(C)C(OC%12OC(C)C(O)C(OS(=O)(=O)O)C%12OS(=O)(=O)O)C(OS(=O)(=O)O)C%11OS(=O)(=O)O)C%10OS(=O)(=O)O)C(OS(=O)(=O)O)C9OS(=O)(=O)O)C8OS(=O)(=O)O)C(OS(=O)(=O)O)C7OS(=O)(=O)O)C6OS(=O)(=O)O)C(OS(=O)(=O)O)C5OS(=O)(=O)O)C4OS(=O)(=O)O)C(OS(=O)(=O)O)C3OS(=O)(=O)O)C2OS(=O)(=O)O)C(OS(=O)(=O)O)C1OS(=O)(=O)O (stereo not drawn)	–	human plasma	128 µg/mL	–	thrombin time	10.5 ± 0.7 s
COc1c(Cl)cccc1Nc1c(-c2ccncc2C#C[C@@]2(C)CCCN2C(=O)/C=C/CN(C)C)[nH]c2c1C(=O)NCC2	–	female BALB/c nude mouse, sample A PDX	25 mg/kg once daily, 28 days, EGFR ASV	–	tumour growth inhibition	123%
O=CCNCCOn1c(=O)n(OCCNCCO)c(=O)n(OCCNCCOn2c(=O)n(OCCNCCO)c(=O)n(OCCNCCO)c2=O)c1=O	DPPH scavenging	–	250 µg/mL	–	inhibition	23.2%

A few entries again:
Structure (SMILES)	assay	test system	setting	how to read	quantity	value
CC(=O)[O-].O.O.[O-]c1ccc(Br)cc1C=NCCN1CCOCC1.[Zn+2]	hydroxyl radical scavenging	–	160 µM	–	inhibition	37.5%
